Assay results gathered from unrelated publications.
Numbered parts are unrelated; each lists some results of a single study.
UniProt Q13043, sequence (whole entry, looked up): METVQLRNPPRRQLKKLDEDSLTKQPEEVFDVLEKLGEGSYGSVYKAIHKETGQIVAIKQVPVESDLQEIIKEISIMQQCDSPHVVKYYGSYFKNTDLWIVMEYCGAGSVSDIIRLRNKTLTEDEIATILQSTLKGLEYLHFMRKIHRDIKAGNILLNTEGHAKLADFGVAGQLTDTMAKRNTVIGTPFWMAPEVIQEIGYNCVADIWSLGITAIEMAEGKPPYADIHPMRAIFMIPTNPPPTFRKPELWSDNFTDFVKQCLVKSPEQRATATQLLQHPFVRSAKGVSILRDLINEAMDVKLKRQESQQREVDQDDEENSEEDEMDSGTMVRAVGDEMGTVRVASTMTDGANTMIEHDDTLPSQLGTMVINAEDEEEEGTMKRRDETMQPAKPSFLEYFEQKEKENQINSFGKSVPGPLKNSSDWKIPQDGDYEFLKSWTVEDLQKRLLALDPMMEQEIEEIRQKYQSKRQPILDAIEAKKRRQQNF
UniProt Q15569, sequence (whole entry, looked up): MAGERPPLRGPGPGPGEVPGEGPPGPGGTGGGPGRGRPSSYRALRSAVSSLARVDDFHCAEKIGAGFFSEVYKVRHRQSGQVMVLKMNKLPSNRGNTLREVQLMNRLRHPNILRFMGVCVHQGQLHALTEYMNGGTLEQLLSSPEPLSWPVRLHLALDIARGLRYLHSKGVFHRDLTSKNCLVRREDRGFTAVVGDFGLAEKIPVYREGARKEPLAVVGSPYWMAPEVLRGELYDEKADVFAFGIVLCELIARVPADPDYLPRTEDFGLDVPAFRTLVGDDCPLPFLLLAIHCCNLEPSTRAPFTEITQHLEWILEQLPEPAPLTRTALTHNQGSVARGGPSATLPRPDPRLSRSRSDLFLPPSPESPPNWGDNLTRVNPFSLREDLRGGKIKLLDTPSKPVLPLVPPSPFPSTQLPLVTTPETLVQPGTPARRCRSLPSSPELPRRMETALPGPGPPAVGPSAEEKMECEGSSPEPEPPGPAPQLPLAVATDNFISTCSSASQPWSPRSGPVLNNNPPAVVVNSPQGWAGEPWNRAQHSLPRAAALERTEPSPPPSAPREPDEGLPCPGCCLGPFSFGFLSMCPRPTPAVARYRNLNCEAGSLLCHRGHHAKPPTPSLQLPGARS
UniProt Q16566, sequence (whole entry, looked up): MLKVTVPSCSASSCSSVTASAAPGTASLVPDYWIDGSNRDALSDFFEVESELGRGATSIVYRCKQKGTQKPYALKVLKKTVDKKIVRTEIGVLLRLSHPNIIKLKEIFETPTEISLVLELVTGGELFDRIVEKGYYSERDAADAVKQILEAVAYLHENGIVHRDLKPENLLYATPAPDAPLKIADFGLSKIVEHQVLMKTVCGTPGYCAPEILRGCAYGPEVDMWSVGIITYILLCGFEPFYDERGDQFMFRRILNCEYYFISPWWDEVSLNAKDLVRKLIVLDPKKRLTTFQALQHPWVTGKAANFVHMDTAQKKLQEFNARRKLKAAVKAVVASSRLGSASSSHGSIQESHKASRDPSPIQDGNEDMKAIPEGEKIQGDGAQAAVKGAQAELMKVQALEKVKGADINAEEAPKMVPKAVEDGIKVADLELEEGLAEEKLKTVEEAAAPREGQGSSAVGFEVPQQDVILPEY
UniProt P30530, sequence (whole entry, looked up): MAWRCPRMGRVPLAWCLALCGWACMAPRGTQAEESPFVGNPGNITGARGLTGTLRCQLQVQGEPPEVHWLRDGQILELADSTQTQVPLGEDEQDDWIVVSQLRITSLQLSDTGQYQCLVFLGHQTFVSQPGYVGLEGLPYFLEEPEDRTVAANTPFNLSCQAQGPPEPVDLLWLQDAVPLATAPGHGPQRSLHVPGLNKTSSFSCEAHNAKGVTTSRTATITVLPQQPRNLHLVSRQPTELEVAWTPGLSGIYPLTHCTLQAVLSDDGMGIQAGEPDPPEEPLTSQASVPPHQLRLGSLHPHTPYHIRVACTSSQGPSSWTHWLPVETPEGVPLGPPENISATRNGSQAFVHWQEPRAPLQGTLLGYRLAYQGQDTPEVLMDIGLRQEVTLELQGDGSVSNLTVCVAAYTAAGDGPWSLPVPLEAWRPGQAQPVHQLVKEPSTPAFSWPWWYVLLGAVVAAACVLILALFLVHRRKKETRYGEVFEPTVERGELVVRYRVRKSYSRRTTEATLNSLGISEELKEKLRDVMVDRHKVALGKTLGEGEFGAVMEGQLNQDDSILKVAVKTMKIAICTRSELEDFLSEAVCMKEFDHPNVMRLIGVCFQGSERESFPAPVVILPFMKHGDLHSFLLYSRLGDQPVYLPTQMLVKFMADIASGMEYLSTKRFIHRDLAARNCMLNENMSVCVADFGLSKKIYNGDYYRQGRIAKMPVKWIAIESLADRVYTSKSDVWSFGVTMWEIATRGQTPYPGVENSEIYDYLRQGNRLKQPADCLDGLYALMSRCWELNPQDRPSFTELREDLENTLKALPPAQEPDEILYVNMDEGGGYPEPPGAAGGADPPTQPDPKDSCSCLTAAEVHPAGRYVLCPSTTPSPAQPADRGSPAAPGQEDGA
UniProt Q9Y6R4, sequence (whole entry, looked up): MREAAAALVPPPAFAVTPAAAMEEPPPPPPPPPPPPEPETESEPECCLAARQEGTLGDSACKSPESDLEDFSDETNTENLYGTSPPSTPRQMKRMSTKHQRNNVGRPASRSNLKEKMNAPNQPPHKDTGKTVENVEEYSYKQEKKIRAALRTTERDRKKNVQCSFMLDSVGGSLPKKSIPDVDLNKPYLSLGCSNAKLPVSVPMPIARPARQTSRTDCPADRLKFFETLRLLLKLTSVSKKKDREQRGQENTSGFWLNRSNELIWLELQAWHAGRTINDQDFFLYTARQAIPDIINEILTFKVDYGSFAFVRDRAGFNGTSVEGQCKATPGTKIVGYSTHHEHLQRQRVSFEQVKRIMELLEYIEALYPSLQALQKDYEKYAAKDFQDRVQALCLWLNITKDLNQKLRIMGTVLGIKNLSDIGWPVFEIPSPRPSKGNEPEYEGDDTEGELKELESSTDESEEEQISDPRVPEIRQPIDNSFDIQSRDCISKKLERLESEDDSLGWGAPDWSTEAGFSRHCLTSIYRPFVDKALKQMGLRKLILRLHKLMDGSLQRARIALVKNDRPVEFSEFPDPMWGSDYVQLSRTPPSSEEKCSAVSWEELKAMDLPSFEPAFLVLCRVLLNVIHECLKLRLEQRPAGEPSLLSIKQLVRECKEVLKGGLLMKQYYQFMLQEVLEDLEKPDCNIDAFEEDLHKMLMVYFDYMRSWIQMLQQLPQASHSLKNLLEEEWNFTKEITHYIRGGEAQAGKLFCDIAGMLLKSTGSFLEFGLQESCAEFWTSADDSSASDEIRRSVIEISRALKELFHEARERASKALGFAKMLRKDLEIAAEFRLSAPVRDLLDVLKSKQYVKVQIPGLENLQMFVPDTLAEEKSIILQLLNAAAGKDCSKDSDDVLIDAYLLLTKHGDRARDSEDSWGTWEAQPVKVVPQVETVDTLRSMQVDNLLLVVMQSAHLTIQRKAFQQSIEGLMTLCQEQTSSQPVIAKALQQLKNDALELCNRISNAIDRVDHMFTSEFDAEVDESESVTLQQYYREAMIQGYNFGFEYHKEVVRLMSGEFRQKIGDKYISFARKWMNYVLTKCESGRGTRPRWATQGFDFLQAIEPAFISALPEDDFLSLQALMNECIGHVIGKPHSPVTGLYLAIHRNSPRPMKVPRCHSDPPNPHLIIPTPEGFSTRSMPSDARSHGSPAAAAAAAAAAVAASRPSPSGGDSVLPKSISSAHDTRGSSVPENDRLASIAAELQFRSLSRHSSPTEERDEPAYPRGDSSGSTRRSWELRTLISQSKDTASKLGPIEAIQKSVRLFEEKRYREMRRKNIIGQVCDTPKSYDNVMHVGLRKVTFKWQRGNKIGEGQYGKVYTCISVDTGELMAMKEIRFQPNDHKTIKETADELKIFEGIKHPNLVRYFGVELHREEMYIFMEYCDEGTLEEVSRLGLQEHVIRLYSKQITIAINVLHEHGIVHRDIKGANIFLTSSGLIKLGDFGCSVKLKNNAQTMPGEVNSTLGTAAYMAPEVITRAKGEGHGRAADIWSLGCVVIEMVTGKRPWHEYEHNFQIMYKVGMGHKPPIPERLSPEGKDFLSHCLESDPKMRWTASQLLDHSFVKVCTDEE

Set 1 — observed: enzyme activity; mode: inhibitor; tested at: 1 µM
SMILES: C=CC(=O)N1CCC([C@@H]2CCNc3c(C(N)=O)c(-c4ccc(Oc5ccccc5)cc4)nn32)CC1
target	inhibition [%]
Dual specificity testis-specific protein kinase 1 (TESK1, Homo sapiens, UniProt Q15569)	12
Mitogen-activated protein kinase kinase kinase 4 (MAP3K4, Homo sapiens, UniProt Q9Y6R4)	12
cAMP-dependent protein kinase catalytic subunit beta (PRKACB, Homo sapiens, UniProt P22694)	36
Cyclin-dependent kinase 15 (CDK15, Homo sapiens, UniProt Q96Q40)	15
Calcium/calmodulin-dependent protein kinase type IV (CAMK4, Homo sapiens, UniProt Q16566)	0
Phosphatidylinositol 4,5-bisphosphate 3-kinase catalytic subunit alpha isoform (PIK3CA, Homo sapiens, UniProt P42336, I800L)	45
cGMP-dependent protein kinase 2 (PRKG2, Homo sapiens, UniProt Q13237)	25
Serine/threonine-protein kinase VRK2 (VRK2, Homo sapiens, UniProt Q86Y07)	17
Serine/threonine-protein kinase 3 (STK3, Homo sapiens, UniProt Q13188)	21

Set 2 — cell line: mouse MPNST tumor cells; method: high-content immunofluorescence imaging; measured: nuclear SOX9; tested at: 10 µM; time: 12 h; notes: mean of 2 replicates; relative to: DMSO control; reading: higher = more nuclear SOX9
Structure (SMILES)	nuclear SOX9 intensity
COc1ccc2[nH]c(-c3ccccc3)c(CCNC(C)=O)c2c1	95.9 % of DMSO
NNC(=O)c1sc2cccc(Cl)c2c1Cl	101 % of DMSO
NC(=O)c1nc(Nc2ccccc2)sc1NC(=O)C1CCCCC1	145 % of DMSO
C=CC1=C(C(=O)O)N2C(=O)[C@@H](NC(=O)/C(=N\O)c3csc(N)n3)[C@H]2SC1	96.4 % of DMSO
O=C(CC12CC3CC(CC(C3)C1)C2)Nc1cccc2nc(NCCNCCO)ccc12	147 % of DMSO
CCOC(=O)N1c2ccc(C(F)(F)F)cc2[C@@H](N(Cc2cc(C(F)(F)F)cc(C(F)(F)F)c2)C(=O)OC)C[C@H]1CC	117 % of DMSO
NS(=O)(=O)c1cc2c(cc1C(F)(F)F)NC(Cc1ccccc1)NS2(=O)=O (centres unmarked)	107 % of DMSO
O=c1[nH]c(=O)n(C2CCCO2)cc1F (centres unmarked)	105 % of DMSO
CC(N)CCCC(C)(C)O (centres unmarked)	109 % of DMSO
COc1cccc(NC(=O)/C=C/c2ccc(Cl)cc2)c1	125 % of DMSO

Set 3 — observed: enzyme activity; mode: inhibitor; tested at: 0.5 µM; relative to: control
Target: Serine/threonine-protein kinase STK11 (STK11, Homo sapiens, UniProt Q15831)
Target sequence (Q15831 1-433): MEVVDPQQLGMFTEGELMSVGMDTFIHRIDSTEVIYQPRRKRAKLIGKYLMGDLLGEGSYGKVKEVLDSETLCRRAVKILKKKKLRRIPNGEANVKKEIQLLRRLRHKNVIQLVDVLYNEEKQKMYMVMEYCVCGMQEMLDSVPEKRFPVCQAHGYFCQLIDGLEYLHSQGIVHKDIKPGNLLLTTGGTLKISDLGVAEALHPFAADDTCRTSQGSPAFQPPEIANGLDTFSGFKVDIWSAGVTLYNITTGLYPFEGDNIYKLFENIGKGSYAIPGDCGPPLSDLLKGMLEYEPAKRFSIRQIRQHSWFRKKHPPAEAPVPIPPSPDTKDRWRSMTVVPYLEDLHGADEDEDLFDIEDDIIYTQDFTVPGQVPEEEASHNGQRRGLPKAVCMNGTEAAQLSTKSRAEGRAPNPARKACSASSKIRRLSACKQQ
SMILES	remaining activity [%]
O=C1NC(=O)C(c2cn(CCCn3ccnc3)c3ccccc23)=C1Nc1ccccc1	89.9
CCOC(=O)c1c(C)[nH]c(/C=C2\C(=O)Nc3ccccc32)c1C	85.2
Nc1ncnc2n[nH]c(Nc3ccc(F)cc3)c12	97.1
Nc1[nH]nc2nc3ccccc3nc12	85.7
C#Cc1cccc(Nc2ncnc3cc(OCCOC)c(OCCOC)cc23)c1	106
COc1cc2nccc(Oc3ccc(NC(=S)NC(=O)c4ccccc4C)cc3)c2cc1OC	106
COc1ccc(OC)c2c(=S)c3ccccc3[nH]c12	84.4
CC(C)[C@H](CO)Nc1nc(Nc2cc(N)cc(Cl)c2)c2ncn(C(C)C)c2n1	60.2
Oc1ccc(-c2nc(-c3ccncc3)c(-c3ccc(F)cc3)[nH]2)cc1	93.1
O=C(O)c1ccc2c3c1cccc3c(=O)n1c3ccccc3nc21	96.6
O=S(=O)(c1cccc2cnccc12)N1CCCNCC1	97.6
COc1cc2ncnc(Nc3ccc(Oc4ccccc4)cc3)c2cc1OC	93.6
Cc1nc(-c2ccccc2)c(-c2ccncc2)o1	98.4
Cn1sc(=O)n(Cc2ccccc2)c1=O	106
Cc1cccc(-c2[nH]c(C(C)(C)C)nc2-c2ccc3c(c2)OCO3)n1	91.3

Set 4 — observed: cell-free assay; method: competition with immobilised ligand; tested at: 1 µM
SMILES: COc1ccc2c(c1)O[C@@H](c1ccc(OC)c(OC)c1)C[C@H]2NC(=O)C1(c2ccc3c(c2)OC(F)(F)O3)CC1
target	remaining binding
TGF-beta receptor type-2 (TGFBR2, Homo sapiens, UniProt P37173)	87%
Receptor-type tyrosine-protein kinase FLT3 (FLT3, Homo sapiens, UniProt P36888, F691L/ITD)	76%
AP2-associated protein kinase 1 (AAK1, Homo sapiens, UniProt Q2M2I8)	91%
Serine/threonine-protein kinase 4 (STK4, Homo sapiens, UniProt Q13043)	79%
Serine/threonine-protein kinase DCLK1 (DCLK1, Homo sapiens, UniProt O15075)	82%
Dual specificity protein kinase CLK1 (CLK1, Homo sapiens, UniProt P49759)	100%
Tyrosine-protein kinase receptor UFO (AXL, Homo sapiens, UniProt P30530)	100%
Ephrin type-B receptor 4 (EPHB4, Homo sapiens, UniProt P54760)	91%
Epithelial discoidin domain-containing receptor 1 (DDR1, Homo sapiens, UniProt Q08345)	100%
Mitogen-activated protein kinase 6 (MAPK6, Homo sapiens, UniProt Q16659)	100%

Excerpt of the above (set 2):
Structure (SMILES)	nuclear SOX9 intensity
C=CC1=C(C(=O)O)N2C(=O)[C@@H](NC(=O)/C(=N\O)c3csc(N)n3)[C@H]2SC1	96.4 % of DMSO
O=C(CC12CC3CC(CC(C3)C1)C2)Nc1cccc2nc(NCCNCCO)ccc12	147 % of DMSO
CCOC(=O)N1c2ccc(C(F)(F)F)cc2[C@@H](N(Cc2cc(C(F)(F)F)cc(C(F)(F)F)c2)C(=O)OC)C[C@H]1CC	117 % of DMSO
NS(=O)(=O)c1cc2c(cc1C(F)(F)F)NC(Cc1ccccc1)NS2(=O)=O (centres unmarked)	107 % of DMSO
O=c1[nH]c(=O)n(C2CCCO2)cc1F (centres unmarked)	105 % of DMSO
